Published values collected from several papers.
A part holds a random share of what one study measured. Substitutions count along the parent as printed.

Study 1 — method: RNA Bind-n-Seq; form: RNA; matrix: in vitro; concentration: not given; setting: RNA with constant flanks, ends assumed; baseline: input RNA pool; reading: higher = stronger binding
Target: RING finger protein unkempt homolog, zinc fingers 1-6, GST-SBP tag (UNK, Homo sapiens, UniProt Q9C0B0, residues 30-357)
Chain of UniProt Q9C0B0 (30-357, looked up): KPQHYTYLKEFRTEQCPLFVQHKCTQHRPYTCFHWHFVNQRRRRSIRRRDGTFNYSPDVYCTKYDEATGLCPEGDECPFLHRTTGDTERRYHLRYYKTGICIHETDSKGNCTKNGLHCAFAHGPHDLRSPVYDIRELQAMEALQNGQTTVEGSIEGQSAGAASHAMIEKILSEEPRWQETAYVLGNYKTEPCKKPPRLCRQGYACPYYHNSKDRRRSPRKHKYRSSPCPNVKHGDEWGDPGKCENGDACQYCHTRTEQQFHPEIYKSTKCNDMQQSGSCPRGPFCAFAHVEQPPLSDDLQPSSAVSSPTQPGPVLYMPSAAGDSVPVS
Constant ends, left off below: GGGAGUUCUACAGUCCGACGAUC … CAACAGAGGAUUGAGCAUCA
| Oligonucleotide | bound/input enrichment |
| --- | --- |
| GAAGGUUUUUCAGAAUCCAAGAAAAGGUCAUCAGAAGAUGAAAAUGAAAAUAAAACCGAGUUCCGGAAGAAAGGAGGAUUUGAAGGGGGAGGAUUCCUUGGAAGAAAGAAAGUUCCCUAU | 0.208 ratio |
| CCUGAUACUUUGGAUCCAGCACUGAUGAGGCCAGGGAGAUUGGAUAGAAAAAUUGAAUUCCGCUUGCCCGAUCUAGAGGGUCGGACCCACAUAUUUAAGAUUCACGCUCGUUCAAUGAGU | 0.317 ratio |
| UCUGCCACCCAGCAGAAGAAAAACACCAAACUCUCUAGCAAAACCACUGCUAAGUUAUCCACCCGUGCUAAAAGAAUUCAGAAGGAGCUAGCUGAAAUAACCCUUGAUCCUCCUCCUAAU | 0.546 ratio |
| GAGUCAGCAUAUUUGAGAGGGCAGCGUUUUGCCAGUACCUAUCUUCUUUCUACAGAAGACCGCUUUUUAAGAAAUAAGAGUUCCACAUUGAGUGGCUGUCAGACACAGAUUUCACUGUGA | 0.279 ratio |
| AAGCAUGAACGCAUUGAAAACGAUGUUGCCACCAUCCUGUCUCGCCGUAUUGCUGUUGAAUACCGUGAUUCGGAAGAUGAUUCAGAAUUUGAUGAAGUAGAUUGGUUGGAGUAAGAAAAA | 0.25 ratio |
| AUCAACCAAGCUGCUCUUCUCAGCAUCCCUGGCUUUGUGGAACGGCUUUGCAAACUGGCAACCCGGAAAGUGUCAGAGUCAACGGGCACAGCCAGCUUCCUUCAAGAACUGGAGGAGUGG | 0.111 ratio |

Study 2 — target: UBE2E1 UBC core domain (UniProt P51965); method: yeast two-hybrid; matrix: yeast; setting: mostly zero background; baseline: not given; reading: higher = stronger interaction
Chain of UniProt P51965 (whole entry, looked up): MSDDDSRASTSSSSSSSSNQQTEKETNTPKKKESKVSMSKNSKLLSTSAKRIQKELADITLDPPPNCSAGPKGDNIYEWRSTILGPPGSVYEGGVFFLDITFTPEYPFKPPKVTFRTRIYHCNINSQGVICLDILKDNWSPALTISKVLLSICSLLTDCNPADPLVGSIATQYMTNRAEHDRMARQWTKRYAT
B1: IRF2BPL RING domain (UniProt Q9H1B7); chain SPMANSGPLCCTICHERLEDTHFVQCPSVPSHKFCFPCSRESIKAQGATGEVYCPSGEKCPLVGSNVP
B2: RNF170 RING domain (UniProt Q96K19); chain TRQQFYTDMYCPICLHQASFPVETNCGHLFCGACIIAYWRYGSWLGAISCPICRQTVTLLLTVF
| Molecule | lacZ reporter activity |
| --- | --- |
| QLRRLQEERTCKVCMDKEVSVVFIPCGHLVVCQECAPSLRKCPICRGIIKGTVRTF (BIRC2 RING domain (UniProt Q13490)) | 0 |
| B1 (IRF2BPL RING domain) | 0 |
| B2 (RNF170 RING domain) | 0 |
| PEELQAMDNVCIICREEMVTGAKRLPCNHIFHTSCLRSWFQRQQTCPTCRMDVLRASLPA (SYVN1 RING domain (UniProt Q86TM6)) | 0 |
| QLQDIKEQTMCPVCLDRLKNMIFLCGHGTCQLCGDRMSECPICRKAIERRILLY (MIB1 RING domain (UniProt Q86YT6)) | 0 |
| QHHELTSLFECPVCFDYVLPPILQCQAGHLVCNQCRQKLSCCPTCRGALTPSIRNL (SIAH2 RING domain (UniProt O43255)) | 0 |
| DDENSDNSNECVVCLSDLRDTLILPCRHLCLCTSCADTLRYQANNCPICRLPFRALLQIR (MGRN1 RING domain (UniProt O60291)) | 0 |
| QLRRLQEERTCKVCMDKEVSIVFIPCGHLVVCKDCAPSLRKCPICRSTIKGTVRTF (BIRC3 RING domain (UniProt Q13489)) | 0 |
| YWAMDSTFELCKICAESNKDVKIEPCGHLLCSCCLAAWQHSDSQTCPFCRCEIKGWEAVS (CBLC RING domain (UniProt Q9ULV8)) | 0 |

Study 3 — method: RNA Bind-n-Seq; form: RNA; matrix: in vitro; concentration: 365 nM; baseline: no-protein control; reading: higher = stronger binding
Target: RNA binding protein fox-1 homolog 2, RRM domain, GST-SBP tag (RBFOX2, Homo sapiens, UniProt O43251-10, residues 100-194)
Setting: natural RNA segment, single round, ends assumed
Constant ends, left off below: GGGAGUUCUACAGUCCGACGAUC … UGGAAUUCUCGGGUGCCAA
Construct (chain): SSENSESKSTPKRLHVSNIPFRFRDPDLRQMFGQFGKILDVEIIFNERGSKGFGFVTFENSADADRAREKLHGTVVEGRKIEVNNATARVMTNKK
| Oligonucleotide | RBNS enrichment (R) |
| --- | --- |
| AAUCAUGUGCCAUGUGUAGGCUGUUGUGUGUACACUGUGUCUAAGAGAAGAAGAAAAGAAAAAAAAAAGAAAGAAACCCACAUGCCAUUUUUUUUUUCUGAUUCAAAUUC | 1.45 |
| CUACAUGUAAGACAUAUGUUACUGUGUGGAGGACAUAAAACUUUUCAGUUCUGGGGUGGCCAUUGCAUUCACUAAUCAGGGUCUGAAAAGGGAGGUGUGUGUGUGUGUGU | 0.556 |
| CAAUAUUCAUUUGGUUGUGGAGACUGAUUUGCUGGGAGAAAUCUGUCCUGUUACUUUCUGGUCAUCCCAGGUUCUGACUUUUACCAGGGGCAAAAAAAAAAAAAGCAAGA | 0.344 |
| GGUUGACCAGUAUUACUAUACAAUGUAAGUGUUUUAAAAAAUACGAAAGUAAUACUCUGCACCCCUUCCUACAAAGAUGAUAAAGCAGUCACUUCUGGCGCAUUUUAAUA | 0.351 |
| GCCCUCAAAUUGUAGUCUCUGUCGGCUUCUGCAGAAUUCUGGAAAAUGCCAGUUUUCCUCCCCCGCCCUUGUUUUCCAUAAAACAUAUUUAUAUAUUGUGAUGAGGAGUA | 0.553 |
| UCCAGAAACCACACUUAGUGGUAACCCUGGUGCUCUCUAGAAUCUCCAAAUGAGCUGCUAUAAAACACCUUUCAGGGGCUGAGAUGCAGCUCUGGUGUGAGUCACUUACC | 0.214 |
| UCUGAAGUAUAAGGAGAAAUGUAUGACCAGAUAGCAAUCCUGCUUUUAGAUAGUAUGCUCUUGAUUGGAACAAAUUUUCAUUUUUUUAAAAAUCUGCUAAACAUUUGCAA | 1.71 |
| AGCCGGGACUGUCACUUUGGAGACAAAACAGUGUUUGUAACAAUAACGUACUCACCGCCGCGGACAAUCCCCCACCCCGAUCCCUCGCCAGACCAGGACGCUUCCUCAAG | 0.388 |
| GCCUGCUGCCCUUUCCUGGCAGGGCUGGUGGAGUCUUCCCUCAAAGCAUGCCUUACCCAGCUGGGAAGUCUCUGCCCUGAUCUGGUACUCCUUGUAGUAAGCUGUUUUCU | 5.4 |
| GGGAAUAAUUUUUGUUCAGUCCUUCUUAGUGACCAAACUUUAAUUUUUAAGAAUAAUAUAUUGACUUACUGAACUGAAGCAUUCUGAGUUGAAAGGAGCUCCAGAGGAGU | 0.498 |
| UUCCCCUUGGGCUGUGUUGGAGUGAGCACCUCCUCUGUAGGCACCUCUCACACUGUUGUCUGUUACUGAUUUUUUUUGAUAAAAAGAUAAUAAAACCUGGUACUUUCUAA | 0.294 |
| AGAUCCAAAUUUCCAUUGUCUUGCAAGCAAAGCACGUAUUAAAUAUGAUCUGCAGCCAUUAAAAAGACACAUUCUGUAAAUGAGAGAGCCUUAUUUUCCUGUAACCUUCA | 1.27 |

Study 4 — method: DHFR PCA, deep sequencing; matrix: yeast; with: (+)-ABA 0 µM; baseline: wild-type fitted maximum; reading: higher = stronger binding
Target: ABI1, truncated, D143A, DHFR fusion (Arabidopsis thaliana)
Setting: methotrexate growth selection, single substitutions
Starting sequence: PYL1, truncated, DHFR fusion (Arabidopsis thaliana); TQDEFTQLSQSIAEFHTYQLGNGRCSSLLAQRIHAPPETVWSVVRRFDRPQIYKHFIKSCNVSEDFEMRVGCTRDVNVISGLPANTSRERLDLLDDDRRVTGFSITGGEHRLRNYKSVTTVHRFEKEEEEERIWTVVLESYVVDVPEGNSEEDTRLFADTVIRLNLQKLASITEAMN
| Change | relative binding score [%] |
| --- | --- |
| R132I | 2.67 |
| G108L | -2.46 |
| V62T | -1.03 |
| E131S | 38.6 |
| R99P | -3.49 |
| S117R | -0.84 |
| G23T | 0.823 |
| V118S | -0.533 |
| N77S | 44.4 |
| S59M | -3.97 |
| N77P | -0.0898 |
| N165D | 14.1 |
| I172Q | -8.12 |
| W41C | 1.69 |
| H110V | 14 |
| N22G | 19.5 |
| D75I | 24 |
| L112C | -0.928 |
| R111A | 5.66 |
| I12K | -0.426 |
| P50D | 0.188 |
| Q10K | 30.2 |
| E125H | 31.9 |
| F15C | -1.97 |
| H55T | 5.84 |

Study 5 — target: CCNB3, cyclin fold, Cln2 fusion (human); method: yeast growth competition, sequencing; matrix: yeast; setting: weak parent motif; baseline: not given; reading: higher = stronger binding
Starting sequence: WEE1 docking peptide (human); HKTFRKLRLFDTP; partner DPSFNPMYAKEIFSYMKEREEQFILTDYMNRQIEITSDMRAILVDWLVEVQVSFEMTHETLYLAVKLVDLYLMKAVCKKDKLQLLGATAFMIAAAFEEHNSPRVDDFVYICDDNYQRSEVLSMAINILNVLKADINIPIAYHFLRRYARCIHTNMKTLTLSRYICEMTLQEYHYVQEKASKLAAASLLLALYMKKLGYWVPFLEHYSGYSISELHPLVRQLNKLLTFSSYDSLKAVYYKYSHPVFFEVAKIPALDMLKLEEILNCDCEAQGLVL
| Change | normalised enrichment score |
| --- | --- |
| L7V | -0.0799 |
| H1D | 0.691 |
| R8E | 0.728 |
| F4G | -0.000125 |
| H1E | 0.278 |
| T3E | -0.203 |
| R5A L7A | 0.568 |
| T3Y | -1.28 |
| L9R | -0.183 |
| R5P | -0.104 |
| K2M | -0.138 |
| P13Y | 0.00493 |
| T12Q | 0.107 |
| T3S | -0.448 |
| R5Q | 0.0195 |
| D11F | 0.494 |
| F10W | -0.00557 |
| K2Q | 0.473 |
| F4K | 0.385 |
| T3D | -0.0737 |
| H1N | 0.171 |
| L9I | -0.0594 |
| F10L | -0.182 |
| F4N | 0.0712 |
| F10G | -0.387 |

Some of these lines once more (study 2):
| Molecule | lacZ reporter activity |
| --- | --- |
| YWAMDSTFELCKICAESNKDVKIEPCGHLLCSCCLAAWQHSDSQTCPFCRCEIKGWEAVS (CBLC RING domain (UniProt Q9ULV8)) | 0 |
| PEELQAMDNVCIICREEMVTGAKRLPCNHIFHTSCLRSWFQRQQTCPTCRMDVLRASLPA (SYVN1 RING domain (UniProt Q86TM6)) | 0 |
| QLRRLQEERTCKVCMDKEVSVVFIPCGHLVVCQECAPSLRKCPICRGIIKGTVRTF (BIRC2 RING domain (UniProt Q13490)) | 0 |
| B2 (RNF170 RING domain) | 0 |
| QLQDIKEQTMCPVCLDRLKNMIFLCGHGTCQLCGDRMSECPICRKAIERRILLY (MIB1 RING domain (UniProt Q86YT6)) | 0 |
| B1 (IRF2BPL RING domain) | 0 |
| QLRRLQEERTCKVCMDKEVSIVFIPCGHLVVCKDCAPSLRKCPICRSTIKGTVRTF (BIRC3 RING domain (UniProt Q13489)) | 0 |
| DDENSDNSNECVVCLSDLRDTLILPCRHLCLCTSCADTLRYQANNCPICRLPFRALLQIR (MGRN1 RING domain (UniProt O60291)) | 0 |
| QHHELTSLFECPVCFDYVLPPILQCQAGHLVCNQCRQKLSCCPTCRGALTPSIRNL (SIAH2 RING domain (UniProt O43255)) | 0 |
